Assay results collected from several papers.
Protocols differ between the studies behind these lines. “And” joins repeats or separate records; there may be more than shown. Numbers after ± are the reported error.
NR4A1: Nuclear receptor subfamily 4 group A member 1 (NR4A1, Homo sapiens, UniProt P22736)
SCN5A: Sodium channel protein type 5 subunit alpha (SCN5A, Homo sapiens, UniProt Q14524)
T1: ssDNA, aptamer; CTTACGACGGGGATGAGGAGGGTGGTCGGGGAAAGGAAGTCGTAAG

Structure (SMILES) = CC(=O)N[C@H]1[C@@H](OC(C)C(N)C(=O)O)O[C@H](CO[C@]2(C(=O)O)C[C@H](O)[C@@H](NC(C)=O)[C@H]([C@H](O)[C@H](O)CO)O2)[C@H](O)[C@@H]1O (stereo partly drawn); tested on = CLEC10A, carbohydrate recognition domain (Homo sapiens, UniProt Q8IUN9); test = binding to carbohydrate recognition domain, isothermal titration calorimetry; conditions = 293 K; measurement = ΔG; result = -6.2 ± 0.1 kcal/mol
Structure (SMILES) = O=C(O)c1cc(-c2ccc(-c3c[nH]nn3)cc2)c2ccc(-c3ccc(C(F)(F)F)cc3)cc2c1; tested on = P2Y purinoceptor 14 (Mus musculus, UniProt Q9ESG6); test = fluorescent tracer binding; system = HEK293 cells; how to read = relative to: human over mouse; measurement = affinity ratio; result = 12 fold
Structure (SMILES) = C=CC(=O)N1CCC(COCC(=O)N2CCN(c3nc(-c4cnc(N)nc4C(F)F)nc(N4CCOC[C@@H]4C)n3)CC2)CC1; tested on = MAPKAPK5 (Homo sapiens, UniProt Q8IW41); test = KINOMEscan; conditions = 1 µM; measurement = remaining binding; result = 100%
Structure (SMILES) = Cc1cc(NC(=O)C=Cc2ccccc2)cc(-c2ccnc(N3CCC(CO)CC3)c2)c1; tested on = NR4A1; test = SPR; conditions = 10.0 µM; measurement = binding response; result = 85.7 RU
Structure (SMILES) = Cc1n[nH]c2ccc(-c3cc(OC[C@@H](N)Cc4ccccc4)cnc3-c3ccoc3)cc12; tested on = Mitogen-activated protein kinase HOG1 (HOG1, Candida albicans, UniProt Q92207); test = MIB/MS competition binding; system = Candida albicans cell lysate; conditions = 100 nM; how to read = relative to: DMSO, lower = stronger binding; measurement = log2 fold change; result = 0.146
Structure (SMILES) = COCCC(=O)N1CCC(Oc2ccccc2)C1 (stereo not drawn); tested on = ATP-dependent RNA helicase DDX1 (Homo sapiens, UniProt Q92499); test = binding, affinity selection mass spectrometry; how to read = relative to: other proteins in batch; measurement = fold enrichment; result = 1.28
Structure (SMILES) = Nc1ncnc2c1ncn2[C@@H]1O[C@H](COP(=O)(O)OP(=O)(O)OP(=O)(O)O)[C@@H](O)[C@H]1O; tested on = P2X purinoceptor 2 (P2RX2, Homo sapiens, UniProt Q9UBL9, D148K/E146K/L150K); test = ion current, agonist, two-electrode voltage clamp; system = Xenopus oocytes; measurement = Hill slope; result = 1.73
Structure (SMILES) = Cc1cccc(NC(=O)Cn2cc(CO)c3ccccc32)c1; tested on = Sodium channel protein type 8 subunit alpha, C-terminal domain (SCN8A, Homo sapiens, UniProt Q9UQD0); test = binding, protein thermal shift; conditions = 25 µM; measurement = delta Tm; result = 2.6 °C
Structure (SMILES) = [Cl-].[Na+]; tested on = GUK1 (Homo sapiens, UniProt Q16774); test = enzyme activity, NADH-coupled; conditions = 150 mM, enzyme 7.5 nM; measurement = initial reaction velocity; result = 0.265 µM/s and 0.237 µM/s and 0.266 µM/s
Structure (SMILES) = COc1cc(CNC(=O)CCCC/C=C/C(C)C)ccc1O; tested on = TRPV1 (Homo sapiens, UniProt Q8NER1); test = channel activation, FLIPR calcium; system = HEK293T; conditions = 6.67 µM; how to read = higher = more activation; measurement = calcium response; result = 38.5 a.u. and 32.7 a.u. and 30.6 a.u. and 36.6 a.u.
Structure (SMILES) = Cn1cc(-c2ccc(-c3cncc(Cl)c3N3CCC4(CCNC4=O)CC3)cc2)cn1; tested on = COLO 205; test = gene expression, microarray, measured: BHLHE41 mRNA; conditions = concentration not given, 6 h; how to read = relative to: untreated cells; measurement = log2 fold change; result = 3.89
Structure (SMILES) = CCN(CCO)CCCC(C)Nc1ccnc2cc(Cl)ccc12 (stereo not drawn); tested on = SCN5A; test = sodium current, whole-cell patch clamp; conditions = 30 µM, without ATX-II; measurement = inactivation slope factor; result = 5.68 mV/e-fold and 5.92 mV/e-fold and 6.45 mV/e-fold
Structure (SMILES) = O=c1nc(SCc2cc(F)cc(C(F)(F)F)c2)nc(SCc2csc3ccc(Cl)cc23)[nH]1; tested on = TOP2A (Homo sapiens, UniProt P11388); test = DNA cleavage; conditions = 125 µM; measurement = mean linear DNA; result = 14%
Structure (SMILES) = [Ca]; tested on = TRPA1 (Homo sapiens, UniProt O75762); test = ion current, two-electrode voltage clamp; system = Xenopus oocytes; conditions = concentration not given, +80 mV, with: extracellular Ca2+; how to read = relative to: current before Ca2+ addition; measurement = potentiation; result = 3.44 fold change and 2.7 fold change and 1.58 fold change and 3.76 fold change and 2.29 fold change
Structure (SMILES) = C#CCCOC(=O)[C@]1(C)C=C(C(=O)OC(C)(C)C)C(=O)CC1; tested on = MAPK8 (Homo sapiens, UniProt P45983); test = D-peptide binding, inhibitor, FP peptide displacement; conditions = 3.125 µM; how to read = lower is stronger displacement; measurement = fraction bound; result = 0.764
Structure (SMILES) = CC(C)c1c(O)ccc2c1CC[C@H]1C(C)(C)CCC[C@]21C; tested on = human iPSC-derived cardiomyocytes; test = MyBP-C/MYH ratio, plate-normalised SD score; conditions = concentration not given, primary screen; how to read = direction not given; measurement = activity score; result = 8.4
Structure (SMILES) = COc1cc(-c2cc(C(C)=O)n3ccccc23)cc(OC)c1Cn1ccnc1; tested on = KAT2A (Homo sapiens, UniProt Q92830); measurement = ΔTm; result = 4.9 °C
Structure (SMILES) = Nc1nc2c(ncn2[C@@H]2O[C@H](COP(=O)(O)O)[C@@H](O)[C@H]2O)c(=O)[nH]1; tested on = GUK1 (Homo sapiens, UniProt Q16774, R148A); test = enzyme activity, NADH-coupled; conditions = 62.5 µM; measurement = reaction rate; result = -0.165 s⁻¹ and 0.0661 s⁻¹ and 0.0464 s⁻¹
Structure (SMILES) = Cc1cc(Nc2cc(N3CCN(C)CC3)nc(Sc3ccc(NC(=O)C4CC4)cc3)n2)[nH]n1; tested on = EEF2K (Homo sapiens, UniProt O00418); test = kinase activity, KinaseProfiler; conditions = 0.03 µM, species human; how to read = relative to: control; measurement = remaining activity; result = 94%
Structure (SMILES) = CN1C(C(=O)Nc2ccccn2)=C(O)c2sc(Cl)cc2S1(=O)=O; tested on = NR4A1; test = reporter gene, Gal4 hybrid reporter; conditions = 30 µM; how to read = relative to: vehicle; measurement = activation; result = 0.64 fold
Structure (SMILES) = CCOC(F)(F)c1nnc2cnc(-c3cnc(OCC(F)(F)F)c(F)c3)cn12; tested on = SCN5A; test = persistent sodium current, patch clamp; conditions = with: ATX-II; measurement = Hill slope; result = 172
Structure (SMILES) = CCCN(CCC)S(=O)(=O)c1ccc(-c2n[nH]c(=S)o2)cc1; tested on = P2X purinoceptor 2 (P2RX2, Homo sapiens, UniProt Q9UBL9); test = calcium mobilization; system = MCF7 stably transfected; conditions = 100 µM, with: ATP 100 µM; measurement = fluorescence increase; result = 92.6 ± 2.11%
Structure (SMILES) = CCCC[C@@H]1NC(=O)[C@H](Cc2ccc(O)cc2)NC(=O)[C@@H]2CCCN2C(=O)[C@H](CC(=O)O)NC(=O)[C@H](C)NC(=O)[C@H](Cc2ccccc2)NC(=O)[C@@H]2CSCCC(=O)N3CN(CN(C3)C(=O)CCSC[C@@H](C(N)=O)NC1=O)C(=O)CCSCCC(=O)N[C@@H](CC(C)(C)C)C(=O)N1CCC[C@H]1C(=O)N[C@@H](CCC(=O)O)C(=O)N[C@H](CCCCNC(=O)CCc1cn(CCOCCOCCOCCOCCOCCC(=O)N[C@H]3CSCCC(=O)N4CN5CN(C4)C(=O)CCSC[C@H](NC(=O)[C@@H](CC(=O)O)NC(=O)[C@H](Cc4cccc6ccccc46)NC(=O)[C@@H]4CCCN4C3=O)C(=O)N[C@@H](CCSC)C(=O)N[C@@H](CCCCNC(=N)N)C(=O)N[C@@H](CC(=O)O)C(=O)N[C@@H](Cc3c[nH]c4ccccc34)C(=O)N[C@@H](CO)C(=O)N[C@@H]([C@@H](C)O)C(=O)N3CCC[C@H]3C(=O)N3C[C@H](O)C[C@H]3C(=O)N[C@@H](Cc3c[nH]c4ccccc34)C(=O)N[C@H](C(N)=O)CSCCC5=O)nn1)C(=O)N1CCC[C@H]1C(=O)N[C@@H](Cc1ccc(O)cc1)C(=O)N2; tested on = Tumor necrosis factor receptor superfamily member 9/Nectin-4 (Homo sapiens, UniProt Q07011+Q96NY8); test = reporter gene, agonist; system = HT-1376 coculture with reporter cells; how to read = relative to: background; measurement = Emax; result = 39 fold
Structure (SMILES) = CC(=O)N[C@H](C(=O)N[C@@H](CC(N)=O)C(=O)N[C@@H](CCCCN)C(=O)N1CCC[C@H]1C(=O)N[C@@H](CC(C)C)C(=O)N1CCC[C@H]1C(=O)N1CCC[C@H]1C(=O)N[C@@H](CC(C)C)C(=O)N1CCC[C@H]1C(=O)N[C@H](C(=O)N[C@@H](C)C(N)=O)C(C)C)C(C)C; tested on = High osmolarity signaling protein SHO1, SH3 domain (SHO1, Saccharomyces cerevisiae, UniProt P40073); test = ligand binding, FTIR spectroscopy, measured: asymmetric stretch band B; conditions = pH 7.0, SHO1 complex, with: 4 mM peptide; measurement = wavenumber; result = 2242.8 ± 0.5 cm⁻¹
Structure (SMILES) = NC(=O)c1cccc(C#CCN(CC[C@H](N)C(=O)O)C[C@H]2O[C@@H](n3cnc4c(N)ncnc43)[C@H](O)[C@@H]2O)c1; tested on = RNMT (Homo sapiens, UniProt O43148); test = cellular thermal shift; system = HeLa cell lysate; conditions = 50 µM; how to read = relative to: DMSO; measurement = Tagg shift; result = ~5 °C
Structure (SMILES) = Nc1ncnc2c1ncn2[C@@H]1O[C@H](COP(=O)(O)OP(=O)(O)OP(=O)(O)O)[C@@H](O)[C@H]1O; tested on = Hexokinase HKDC1 (Homo sapiens, UniProt Q2TB90, T58M); test = substrate, G6PDH-coupled; conditions = pH 8, 25 °C; measurement = Km; result = 650 ± 30 µM
Structure (SMILES) = O=C(O)c1ccc(Nc2ncc3c(n2)-c2ccc(Cl)cc2C(c2c(F)cccc2F)=NC3)cc1; tested on = human Abl(T315I); test = kinase activity; conditions = 1 µM; measurement = remaining activity; result = 74%
Structure (SMILES) = Oc1ccccc1-c1n[nH]cc1-c1ccnc2ccccc12; tested on = Serine/threonine-protein kinase SCH9 (SCH9, Candida albicans, UniProt Q5AHG6); test = kinase binding, MIB/MS competition; system = Candida albicans lysate; conditions = 10 µM; how to read = relative to: DMSO, negative = stronger binding; measurement = log2 fold change; result = 0.12
Structure (SMILES) = C=CC(=O)N1CCC(C(=O)NCC(=O)N2CCN(c3nc(-c4cnc(N)nc4C(F)F)nc(N4CCOCC4)n3)CC2)CC1; tested on = MAPK10 (Homo sapiens, UniProt P53779); test = KINOMEscan; conditions = 1 µM; measurement = remaining binding; result = 100%
Structure (SMILES) = Nc1ncnc2c1ncn2[C@@H]1O[C@H](COP(=O)(O)OP(=O)(O)O)[C@@H](O)[C@H]1O; tested on = T1, ssDNA, aptamer; test = ITC; measurement = Kd; result = 53.4 µM

A few entries again:
Structure (SMILES) = COc1cc(-c2cc(C(C)=O)n3ccccc23)cc(OC)c1Cn1ccnc1; tested on = KAT2A (Homo sapiens, UniProt Q92830); measurement = ΔTm; result = 4.9 °C
Structure (SMILES) = CC(C)c1c(O)ccc2c1CC[C@H]1C(C)(C)CCC[C@]21C; tested on = human iPSC-derived cardiomyocytes; test = MyBP-C/MYH ratio, plate-normalised SD score; conditions = concentration not given, primary screen; how to read = direction not given; measurement = activity score; result = 8.4
